Experimental data of several laboratories.
Each numbered part is a random draw from the data of one study; scales do not carry over between parts.
Sequence of UniProt P14921 (whole entry, looked up): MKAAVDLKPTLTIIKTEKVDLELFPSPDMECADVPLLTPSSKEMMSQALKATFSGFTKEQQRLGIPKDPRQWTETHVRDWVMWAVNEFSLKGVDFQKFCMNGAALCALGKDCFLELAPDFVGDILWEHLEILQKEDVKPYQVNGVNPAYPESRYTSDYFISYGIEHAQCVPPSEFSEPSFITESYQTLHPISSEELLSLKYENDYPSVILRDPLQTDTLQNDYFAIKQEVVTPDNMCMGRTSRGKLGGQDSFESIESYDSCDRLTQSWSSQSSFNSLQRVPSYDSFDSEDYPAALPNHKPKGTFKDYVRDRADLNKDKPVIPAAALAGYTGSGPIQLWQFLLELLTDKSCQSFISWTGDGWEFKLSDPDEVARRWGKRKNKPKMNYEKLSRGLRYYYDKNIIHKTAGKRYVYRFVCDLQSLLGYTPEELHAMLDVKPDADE
Sequence of UniProt P18846 (whole entry, looked up): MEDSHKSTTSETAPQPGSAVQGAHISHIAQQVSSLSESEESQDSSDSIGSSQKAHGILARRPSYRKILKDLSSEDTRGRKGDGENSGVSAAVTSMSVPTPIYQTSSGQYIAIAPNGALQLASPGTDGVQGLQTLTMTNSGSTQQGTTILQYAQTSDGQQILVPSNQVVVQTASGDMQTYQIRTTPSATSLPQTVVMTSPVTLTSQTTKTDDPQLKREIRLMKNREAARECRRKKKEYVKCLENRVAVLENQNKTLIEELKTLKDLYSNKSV
Sequence of UniProt P16220 (whole entry, looked up): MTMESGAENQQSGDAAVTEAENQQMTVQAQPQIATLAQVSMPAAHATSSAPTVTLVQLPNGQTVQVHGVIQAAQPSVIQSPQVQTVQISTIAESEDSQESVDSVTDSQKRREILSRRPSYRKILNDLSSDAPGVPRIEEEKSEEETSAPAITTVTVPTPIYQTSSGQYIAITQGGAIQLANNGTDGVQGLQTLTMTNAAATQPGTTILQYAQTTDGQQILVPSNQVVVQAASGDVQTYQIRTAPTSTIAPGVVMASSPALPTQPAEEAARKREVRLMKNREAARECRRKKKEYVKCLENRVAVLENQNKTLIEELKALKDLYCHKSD
Sequence of UniProt Q9Y261 (142-269, looked up): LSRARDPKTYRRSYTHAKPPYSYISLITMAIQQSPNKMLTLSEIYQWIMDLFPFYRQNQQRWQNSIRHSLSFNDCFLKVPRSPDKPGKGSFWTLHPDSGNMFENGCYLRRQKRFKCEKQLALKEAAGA

Study 1
Target: Replicase polyprotein 1ab, nsp13 helicase (rep, Severe acute respiratory syndrome coronavirus 2, UniProt P0DTD1)
Action: inhibitor
Tested at: 20 µM
| Structure (SMILES) | inhibition [%] |
| --- | --- |
| CC(=O)NCCCOc1ccc(C(=O)N2CCC(N3C(=O)CCc4ccccc43)CC2)cc1 | -0.58 |
| CCCCCCOC(=O)NC(=N)c1ccc(NCc2nc3cc(C(=O)N(CCC(=O)OCC)c4ccccn4)ccc3n2C)cc1 | 7.35 |
| CC(C)(N)C(=O)N[C@H](COCc1ccccc1)C(=O)N1CCC2(CC1)CN(S(C)(=O)=O)c1ccccc12 | 5.8 |
| C[C@]12CC[C@H]3[C@@H](CCC4=CC(=O)CC[C@@]43C)[C@@H]1CC[C@@H]2O | 2.75 |
| CC(C)(C)C(=O)OCOC(=O)[C@@H]1N2C(=O)C[C@H]2S(=O)(=O)C1(C)C | 3.11 |
| CC(=O)OC[C@H]1O[C@@H](n2ccc(=O)[nH]c2=O)[C@H](OC(C)=O)[C@@H]1OC(C)=O | 10.5 |
| Cc1nccn1CC1CCc2c(c3ccccc3n2C)C1=O (stereo not shown) | 2.07 |
| CCN(CC)CCNC(=O)c1ccccc1I | 1 |
| CN(CCOc1ccc(-c2ccc3c(c2)OCO3)cc1C(C)(C)C)CC(=O)O | 4.66 |
| CCCSc1nc(N[C@@H]2C[C@H]2c2ccc(F)c(F)c2)c2nnn([C@@H]3C[C@H](OCCO)[C@@H](O)[C@H]3O)c2n1 | 3.13 |
| C[C@H]1CC[C@H](n2c3cnccc3c3cnc(Nc4ccc5c(n4)CCN(C(=O)CO)C5)nc32)CC1 | 1.27 |
| COC[C@H](NC(=O)c1cnc(C)s1)C(=O)N[C@@H](COC)C(=O)N[C@@H](Cc1ccccc1)C(=O)[C@@]1(C)CO1 | 6.42 |
| CN1CCN(C2=Nc3ccccc3Sc3ccc(Cl)cc32)CC1 | 1.43 |
| CN1CCN(c2nc(C3=C(c4c[nH]c5ccccc45)C(=O)NC3=O)c3ccccc3n2)CC1 | 12.1 |
| CCn1c2ccccc2c2cc(CNCc3ccccc3OC)ccc21 | 10.4 |
| CC1(C)S[C@@H]2[C@H](NC(=O)[C@H](N)c3ccc(O)cc3)C(=O)N2[C@H]1C(=O)O | -0.28 |
| Nc1ncc2c(n1)CC(c1ccco1)CC2=O (stereo not shown) | 12.6 |
| O=C(O)CC(O)C(=O)O (stereo not shown) | 3.01 |
| COc1ccc(Cl)cc1NC(=O)Nc1cc(C)nc2ccccc12 | 4.96 |
| O=C(NC1CCC1)c1ccc(C#Cc2cccc(F)c2)nc1 | 5.85 |
| Cl/C=C/C[N+]12CN3CN(CN(C3)C1)C2 | -1.65 |

Study 2
Cell line: HEK-293T
Read-out: pseudovirus infection
Organism: VSV pseudotyped with SARS-CoV-2 spike
Tested at: 10 µM
Time: 16 h
Relative to: vehicle-treated
| SMILES | GFP-positive cells [%] |
| --- | --- |
| CC(C)n1c(/C=C/C(O)CC(O)CC(=O)O)c(-c2ccc(F)cc2)c2ccccc21 (stereo not shown) | 111 |
| C[C@@H]1C[C@H]2[C@@H]3CCC4=CC(=O)C=C[C@]4(C)[C@@]3(Cl)[C@@H](O)C[C@]2(C)[C@@]1(OC(=O)c1ccco1)C(=O)CCl | 54.1 |
| O=C1C(O)=C([C@H]2CC[C@H](c3ccc(Cl)cc3)CC2)C(=O)c2ccccc21 | 7.2 |

Study 3
Target: Eukaryotic initiation factor 4A-I (EIF4A1, Homo sapiens, UniProt P60842, residues 1-406, full length assumed)
Sequence of UniProt P60842 (whole entry, looked up): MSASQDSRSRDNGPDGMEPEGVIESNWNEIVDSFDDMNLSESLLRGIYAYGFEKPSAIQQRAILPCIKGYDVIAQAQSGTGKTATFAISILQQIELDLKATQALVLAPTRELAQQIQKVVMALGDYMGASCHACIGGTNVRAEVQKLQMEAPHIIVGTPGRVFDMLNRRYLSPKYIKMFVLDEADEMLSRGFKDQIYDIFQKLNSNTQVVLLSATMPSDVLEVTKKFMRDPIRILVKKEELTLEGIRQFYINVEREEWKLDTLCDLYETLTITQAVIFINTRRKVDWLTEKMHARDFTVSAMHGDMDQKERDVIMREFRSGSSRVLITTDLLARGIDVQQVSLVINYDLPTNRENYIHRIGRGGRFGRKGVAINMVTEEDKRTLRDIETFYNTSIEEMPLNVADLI
Technique: RNA Bind-n-Seq
Form: RNA
Sample: in vitro
Tested at: 90 pmol
Notes: 4-mer, random 30-nt RNA, single round
With: 3 µM iPr-DMDA-PatA, 2 mM ADP, 2 mM phosphate
Relative to: input library
Direction: higher = stronger binding
| Sequence | 4-mer enrichment [fold] |
| --- | --- |
| GAUC | 1.1 |
| UAUC | 1.13 |
| AUAU | 1.35 |
| CUAC | 1.01 |
| GACA | 1.14 |
| GCAC | 0.831 |
| CCUG | 0.819 |

Study 4
Target: Replicase polyprotein 1ab, main protease (rep, Severe acute respiratory syndrome coronavirus 2, UniProt P0DTD1)
Read-out: enzyme activity
Action: inhibitor
| Compound | IC50 [µM] |
| --- | --- |
| COc1cc(-c2ccc(/N=N/c3ccc4c(S(=O)(=O)O)cc(S(=O)(=O)O)c(N)c4c3O)c(OC)c2)ccc1/N=N/c1ccc2c(S(=O)(=O)O)cc(S(=O)(=O)O)c(N)c2c1O | 3.34 |
| C=C1c2cccc(O)c2C(=O)C2C(=O)[C@]3(O)C(=O)C(C(N)=O)C(=O)[C@@H](N(C)C)[C@@H]3[C@@H](O)[C@H]12 (stereo partly shown) | > 20 |
| CCCCCCCCCCCCCCCCCC[S+](CCC)c1ccccc1C(=O)OCC (stereo not shown) | 12.1 |

Study 5
Target: RNA binding protein fox-1 homolog 2, RRM domain, GST-SBP tag (RBFOX2, Homo sapiens, UniProt O43251-10, residues 100-194)
Technique: RNA Bind-n-Seq
Form: RNA
Sample: in vitro
Tested at: 365 nM
Notes: natural RNA segment, single round, ends assumed
Relative to: no-protein control
Direction: higher = stronger binding
Constant ends, left off below: GGGAGUUCUACAGUCCGACGAUC … UGGAAUUCUCGGGUGCCAA
Residues (chain): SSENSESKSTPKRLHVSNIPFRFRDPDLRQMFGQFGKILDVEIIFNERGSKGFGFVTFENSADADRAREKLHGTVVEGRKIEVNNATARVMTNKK
| Sequence | RBNS enrichment (R) |
| --- | --- |
| AAAUUCAAUUUUAAGACCUCCCUGUGGUAAUUGGGAGAGGUAGCCGAGUCACACCCGGUGGCUCUGGUAUGAAUUCACCCGAAGCGCUUCUGCACCAACUCACCUGGCCG | 0.497 |
| AGCUGGACAGCGGCAGUGGGCCUGCUGAGGCCUUCUCUUGAGGCCUGUGCUCUGGGGGUCCCUUGCUUAGCCUGUGCUGGACCAGCUGGCCUGGGGUCCCUCUGAAGAGA | 8.63 |
| CUACAGAAAGGAAGACAGCUUGGCCCAGCGGGCUGAAGUUCAGAAUUCACUAGGUAGUUGUUGUUGGUUGACUUGGAGGUAGCUGGGUAAUCAACAGCUUUCACUUUAGA | 0.459 |
| AUGCAGUCAAUUAUUCACGCCAUGCACAGCAUAAUUUGCUCCUUUGUGUGGAGUGGUGUGUCAGCCCUUGAACAUCUCCUCCAAAGAGACUAGAAGAGUCUUAAAUUAUA | 0.333 |
| GCCCCUGCCGCGCGGGGGGCUGGGUCUGGUUGAGUCGCUGCUUUCCCGAGGGCAGCGCAGGGAUCCGGGGAAGCUGCGGCAGGGAGCGGGCGCCGGCUUCGUGGCUCUGA | 0.632 |
| UCUGCUUUUCUUGGCGUUGGGUAGAAGCAGGACAUCUGUGUGUAUGUGCGUAUUUAAAUUAGAUUAUUUAUAAUAACCAGAGCCAGCCCUCGCGCUGGCCAGGAUCCUCC | 0.526 |
| CUCAGAUACCUCUGUGACCAAAUUUGUCUCCAACCACAUAGCUCAUUUCCUAUAAUGUUAUAUCAUAGGAAGCCCUCACAGAGACACUAACACAGCUAAAGAUCUUCUGA | 0.326 |
| GGCUCUGGCUCCCUAACACCUGAAUCCCAGAUGAUGGGAAGUAUGUUUUCAAGUGUGGGGAGGAUAUGAAAAUGUUCUGUUCUCACUUUUGGCUUUAUGUCCAUUUUACC | 0.228 |

Mixed results
Tested at: not given
Direction: higher = stronger binding
WRKY33 N-terminal DNA-binding domain: Probable WRKY transcription factor 33, N-terminal DNA-binding domain (WRKY33, Arabidopsis thaliana, UniProt Q8S8P5, residues 169-264)
Sequence of UniProt Q8S8P5 (169-264, looked up): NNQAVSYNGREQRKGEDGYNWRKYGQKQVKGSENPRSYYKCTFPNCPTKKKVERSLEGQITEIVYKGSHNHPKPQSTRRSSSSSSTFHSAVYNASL
Sequence of UniProt Q8S8P5 (346-449, looked up): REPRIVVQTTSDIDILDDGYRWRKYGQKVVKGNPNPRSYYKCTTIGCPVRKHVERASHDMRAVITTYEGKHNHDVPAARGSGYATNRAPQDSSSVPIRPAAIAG
| Sequence | target | test | system | conditions | how to read | endpoint | result |
| --- | --- | --- | --- | --- | --- | --- | --- |
| GAGGCCAGTCGGAAGTTGCCTCCTGGCAACTTCCGACTGGCCTCACACTC | Protein C-ets-1, full length (ETS1, Homo sapiens, UniProt P14921, residues 1-441) | protein-binding microarray | hairpin DNA, in vitro | whole hairpin DNA, median over replicate spots | relative to: not given | median fluorescence | 3370 a.u. |
| AAAAAACAGGCCGATTCCGATCCCGGAAAA | WRKY33 N-terminal DNA-binding domain | DNA-protein interaction ELISA | double-stranded DNA, one strand shown, in vitro, bacterial lysate | whole dsDNA probe, crude lysate protein | relative to: highest signal in screen | relative absorbance | 17.6 % of maximum |
| GAGGCCGACGACGTCGTGCCTCCTGGCACGACGTCGTCGGCCTCACACTC (5mC at 15 29) | Cyclic AMP-responsive element-binding protein 1, full length (CREB1, Homo sapiens, UniProt P16220, residues 1-327) | protein-binding microarray | hairpin DNA, in vitro | whole hairpin DNA, median over replicate spots | relative to: not given | median fluorescence | 4070 a.u. |
| AAAAAACCCTACATCGCATATAAGAGAAAA | WRKY33 N-terminal DNA-binding domain | DNA-protein interaction ELISA | double-stranded DNA, one strand shown, in vitro, bacterial lysate | whole dsDNA probe, crude lysate protein | relative to: highest signal in screen | relative absorbance | 20.7 % of maximum |
| GAGGCCATGTAGCCAACGCCTCCTGGCGTTGGCTACATGGCCTCACACTC | Hepatocyte nuclear factor 3-beta, forkhead domain (FOXA2, Homo sapiens, UniProt Q9Y261, residues 142-269) | protein-binding microarray | hairpin DNA, in vitro | whole hairpin DNA, median over replicate spots | relative to: not given | median fluorescence | 3280 a.u. |
| AAAAAATTCCGCGTGTATGTGTACGTAAAA | Probable WRKY transcription factor 33, C-terminal DNA-binding domain (WRKY33, Arabidopsis thaliana, UniProt Q8S8P5, residues 346-449) | DNA-protein interaction ELISA | double-stranded DNA, one strand shown, in vitro, bacterial lysate | whole dsDNA probe, crude lysate protein | relative to: highest signal in screen | relative absorbance | 66.8 % of maximum |
| GAGGCCGACGACGTCGTGCCTCCTGGCACGACGTCGTCGGCCTCACACTC (5mC at 9 15 29 35) | Cyclic AMP-dependent transcription factor ATF-1, full length (ATF1, Homo sapiens, UniProt P18846, residues 1-271) | protein-binding microarray | hairpin DNA, in vitro | whole hairpin DNA, median over replicate spots | relative to: not given | median fluorescence | 4380 a.u. |

Excerpt of the above (mixed results):
| Sequence | target | test | system | conditions | how to read | endpoint | result |
| --- | --- | --- | --- | --- | --- | --- | --- |
| GAGGCCAGTCGGAAGTTGCCTCCTGGCAACTTCCGACTGGCCTCACACTC | Protein C-ets-1, full length (ETS1, Homo sapiens, UniProt P14921, residues 1-441) | protein-binding microarray | hairpin DNA, in vitro | whole hairpin DNA, median over replicate spots | relative to: not given | median fluorescence | 3370 a.u. |
| GAGGCCATGTAGCCAACGCCTCCTGGCGTTGGCTACATGGCCTCACACTC | Hepatocyte nuclear factor 3-beta, forkhead domain (FOXA2, Homo sapiens, UniProt Q9Y261, residues 142-269) | protein-binding microarray | hairpin DNA, in vitro | whole hairpin DNA, median over replicate spots | relative to: not given | median fluorescence | 3280 a.u. |
| GAGGCCGACGACGTCGTGCCTCCTGGCACGACGTCGTCGGCCTCACACTC (5mC at 9 15 29 35) | Cyclic AMP-dependent transcription factor ATF-1, full length (ATF1, Homo sapiens, UniProt P18846, residues 1-271) | protein-binding microarray | hairpin DNA, in vitro | whole hairpin DNA, median over replicate spots | relative to: not given | median fluorescence | 4380 a.u. |
| AAAAAACAGGCCGATTCCGATCCCGGAAAA | WRKY33 N-terminal DNA-binding domain | DNA-protein interaction ELISA | double-stranded DNA, one strand shown, in vitro, bacterial lysate | whole dsDNA probe, crude lysate protein | relative to: highest signal in screen | relative absorbance | 17.6 % of maximum |
